Measurements from different studies.
Lines come from different studies, so protocols differ. ± gives the spread as reported.
CNR2: Cannabinoid receptor 2 (CNR2, Homo sapiens, UniProt P34972)
Chain of UniProt P34972 (whole entry, unmodified, looked up): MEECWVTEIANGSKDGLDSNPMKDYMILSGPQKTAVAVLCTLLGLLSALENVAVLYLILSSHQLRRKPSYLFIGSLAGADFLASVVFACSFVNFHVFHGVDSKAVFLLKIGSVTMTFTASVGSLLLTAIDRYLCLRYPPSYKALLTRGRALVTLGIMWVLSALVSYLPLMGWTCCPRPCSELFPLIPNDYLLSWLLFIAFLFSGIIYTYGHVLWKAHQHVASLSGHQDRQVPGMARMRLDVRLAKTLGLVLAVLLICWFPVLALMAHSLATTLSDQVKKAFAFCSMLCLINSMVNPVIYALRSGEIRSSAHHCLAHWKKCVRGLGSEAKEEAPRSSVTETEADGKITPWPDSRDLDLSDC

Compound	target	assay	test system	conditions	endpoint	result
CCCCCn1cc(C(=O)c2cccc3ccccc23)c2ccccc21	CNR2 (Homo sapiens, UniProt P34972, V261L)	G protein activation, agonist, BRET	–	–	EC50	0.589 nM
CCOC(=O)[C@](CC)(CCCSCCOCCOCCNC(=O)c1ccc(-c2c3ccc(=N)c(S(=O)(=O)O)c-3oc3c(S(=O)(=O)O)c(N)ccc23)c(C(=O)O)c1)NC(=O)c1ccc(C2CC2)c(Cc2ccc(F)cc2)n1	CNR2	cAMP, agonist	–	–	EC50	1.3 nM
CCCCCn1cc(C(=O)c2cccc3ccccc23)c2cc(O)ccc21	CNR2	ligand displacement, radioligand	–	cell membranes	Ki	115 nM
COC(=O)c1ccc2c(C=C3C(=O)C4CCN3CC4)cn(Cc3ccccc3)c2c1	CNR2	cAMP level, agonist	CHO expressing human CB2	with: 10 µM forskolin	IC50	48 ± 3.9 nM
CCOC(=O)C(CC)(CC)NC(=O)c1ccc(N2CC(OC)C2)c(OC[C@H]2C[C@@H]2CO)n1	CNR2	ligand displacement, radioligand	–	cell membranes	Ki	0.3 nM
CCOC(=O)[C@](CC)(CCCSCCOCCOCCNc1ccc([N+](=O)[O-])c2nonc12)NC(=O)c1ccc(C2CC2)c(Cc2ccc(F)cc2)n1	CNR2	ligand displacement, radioligand	–	cell membranes	Ki	9.1 nM
CCCCCn1cc(C(=O)c2ccc3ccccc3c2)c2ccccc21	CNR2 (Homo sapiens, UniProt P34972, L182I)	G protein activation, agonist, BRET	–	–	EC50	42.7 nM
COC(=O)c1ccc(Cn2cc(C=C3C(=NO)C4CCN3CC4)c3ccccc32)cc1	CNR2	ligand displacement, radioligand	–	cell membranes	Ki	271 nM
CCCCCn1cc(C(=O)c2cccc3c2CC(C)(C)C3)c2ccccc21	CNR2	β-arrestin recruitment, agonist, BRET	–	–	EC50	1200 nM
CCCCn1cc(C(=O)c2cccc3ccccc23)c2cc(O)ccc21	CNR2	ligand displacement, radioligand	–	cell membranes	Ki	185 nM
CC1=C[C@H]2c3c(O)cc(CCc4ccccc4)cc3OC(C)(C)[C@@H]2CC1	CNR2	ligand displacement, radioligand	–	cell membranes	Ki	126 nM

For quick reference, copied from above:
Compound	target	assay	test system	conditions	endpoint	result
CCCCCn1cc(C(=O)c2cccc3ccccc23)c2ccccc21	CNR2 (Homo sapiens, UniProt P34972, V261L)	G protein activation, agonist, BRET	–	–	EC50	0.589 nM
CCOC(=O)[C@](CC)(CCCSCCOCCOCCNC(=O)c1ccc(-c2c3ccc(=N)c(S(=O)(=O)O)c-3oc3c(S(=O)(=O)O)c(N)ccc23)c(C(=O)O)c1)NC(=O)c1ccc(C2CC2)c(Cc2ccc(F)cc2)n1	CNR2	cAMP, agonist	–	–	EC50	1.3 nM
